Experimental data from different studies.
Numbered parts are unrelated; each lists some results of a single study. Several values in a cell are separate wells, animals, samples, runs or records.
UniProt Q96SB4, sequence (whole entry, looked up): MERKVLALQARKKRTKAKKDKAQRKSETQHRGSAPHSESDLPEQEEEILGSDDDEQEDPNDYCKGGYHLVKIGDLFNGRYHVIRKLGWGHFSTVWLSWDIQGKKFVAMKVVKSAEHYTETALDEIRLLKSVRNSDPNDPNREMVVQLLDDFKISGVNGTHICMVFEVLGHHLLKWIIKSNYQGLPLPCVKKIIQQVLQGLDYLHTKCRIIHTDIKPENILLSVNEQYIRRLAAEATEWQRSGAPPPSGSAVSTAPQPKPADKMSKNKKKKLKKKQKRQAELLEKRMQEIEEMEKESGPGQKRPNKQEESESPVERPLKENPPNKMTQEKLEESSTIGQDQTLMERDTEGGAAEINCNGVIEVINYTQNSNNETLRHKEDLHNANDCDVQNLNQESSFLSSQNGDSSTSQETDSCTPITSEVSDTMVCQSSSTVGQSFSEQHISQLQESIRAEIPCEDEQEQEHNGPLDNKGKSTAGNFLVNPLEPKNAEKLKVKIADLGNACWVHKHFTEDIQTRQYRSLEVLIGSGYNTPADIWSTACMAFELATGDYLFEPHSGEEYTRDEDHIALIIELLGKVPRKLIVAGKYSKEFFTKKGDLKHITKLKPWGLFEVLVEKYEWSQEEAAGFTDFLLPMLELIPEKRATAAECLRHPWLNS
UniProt P10721, sequence (whole entry, unmodified, looked up): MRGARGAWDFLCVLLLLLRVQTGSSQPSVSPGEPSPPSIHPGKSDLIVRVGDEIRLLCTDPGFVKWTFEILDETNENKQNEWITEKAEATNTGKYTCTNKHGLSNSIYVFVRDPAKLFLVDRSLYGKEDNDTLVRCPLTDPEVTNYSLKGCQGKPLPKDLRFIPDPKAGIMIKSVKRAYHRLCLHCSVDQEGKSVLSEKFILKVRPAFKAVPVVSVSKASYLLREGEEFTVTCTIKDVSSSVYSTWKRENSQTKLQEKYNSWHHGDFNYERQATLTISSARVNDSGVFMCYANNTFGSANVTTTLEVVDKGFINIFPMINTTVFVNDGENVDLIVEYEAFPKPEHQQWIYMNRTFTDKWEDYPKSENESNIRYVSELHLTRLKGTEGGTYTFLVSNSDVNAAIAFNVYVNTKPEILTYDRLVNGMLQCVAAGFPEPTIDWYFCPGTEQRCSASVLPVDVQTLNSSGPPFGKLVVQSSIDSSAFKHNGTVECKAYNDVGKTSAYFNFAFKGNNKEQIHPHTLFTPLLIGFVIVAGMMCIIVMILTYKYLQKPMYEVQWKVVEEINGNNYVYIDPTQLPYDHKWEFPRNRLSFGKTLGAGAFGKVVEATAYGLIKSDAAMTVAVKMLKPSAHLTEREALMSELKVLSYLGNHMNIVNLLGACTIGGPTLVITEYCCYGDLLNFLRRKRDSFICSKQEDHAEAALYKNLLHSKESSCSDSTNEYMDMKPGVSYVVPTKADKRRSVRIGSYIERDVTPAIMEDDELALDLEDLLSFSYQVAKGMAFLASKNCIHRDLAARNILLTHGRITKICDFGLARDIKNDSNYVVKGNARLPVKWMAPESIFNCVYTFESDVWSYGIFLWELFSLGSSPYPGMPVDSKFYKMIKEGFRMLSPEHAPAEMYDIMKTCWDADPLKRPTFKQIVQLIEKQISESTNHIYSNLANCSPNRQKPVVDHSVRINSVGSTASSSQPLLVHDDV
UniProt O75676, sequence (whole entry, looked up): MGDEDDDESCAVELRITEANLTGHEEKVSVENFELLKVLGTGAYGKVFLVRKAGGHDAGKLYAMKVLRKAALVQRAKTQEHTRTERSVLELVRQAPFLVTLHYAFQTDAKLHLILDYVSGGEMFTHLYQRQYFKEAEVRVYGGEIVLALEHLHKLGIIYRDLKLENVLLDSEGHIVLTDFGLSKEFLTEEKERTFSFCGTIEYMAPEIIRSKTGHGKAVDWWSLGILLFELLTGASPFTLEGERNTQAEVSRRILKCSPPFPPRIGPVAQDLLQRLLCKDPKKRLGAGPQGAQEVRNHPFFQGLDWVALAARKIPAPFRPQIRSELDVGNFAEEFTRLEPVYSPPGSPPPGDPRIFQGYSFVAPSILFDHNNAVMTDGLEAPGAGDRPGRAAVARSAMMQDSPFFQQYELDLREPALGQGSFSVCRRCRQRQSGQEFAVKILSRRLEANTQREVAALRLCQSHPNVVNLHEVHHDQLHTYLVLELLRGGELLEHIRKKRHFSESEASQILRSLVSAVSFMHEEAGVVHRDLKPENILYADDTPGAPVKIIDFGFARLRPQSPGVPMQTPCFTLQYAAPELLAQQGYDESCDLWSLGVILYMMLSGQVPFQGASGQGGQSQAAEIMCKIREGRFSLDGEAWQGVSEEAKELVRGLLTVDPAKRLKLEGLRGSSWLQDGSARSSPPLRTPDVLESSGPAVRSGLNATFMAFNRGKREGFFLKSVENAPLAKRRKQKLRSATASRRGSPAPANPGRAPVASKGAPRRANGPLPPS
UniProt Q86YV6, sequence (whole entry, looked up): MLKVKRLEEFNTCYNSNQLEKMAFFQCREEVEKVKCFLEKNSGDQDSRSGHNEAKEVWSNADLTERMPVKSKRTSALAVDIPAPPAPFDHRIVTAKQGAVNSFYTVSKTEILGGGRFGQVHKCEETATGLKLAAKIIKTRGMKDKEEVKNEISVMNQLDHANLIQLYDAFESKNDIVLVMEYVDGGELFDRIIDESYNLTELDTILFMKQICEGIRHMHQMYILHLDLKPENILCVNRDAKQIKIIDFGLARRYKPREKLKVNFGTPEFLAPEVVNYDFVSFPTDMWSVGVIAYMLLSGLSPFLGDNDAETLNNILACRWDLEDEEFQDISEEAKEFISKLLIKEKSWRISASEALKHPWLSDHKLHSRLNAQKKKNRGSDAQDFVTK
UniProt Q96D53, sequence (whole entry, looked up): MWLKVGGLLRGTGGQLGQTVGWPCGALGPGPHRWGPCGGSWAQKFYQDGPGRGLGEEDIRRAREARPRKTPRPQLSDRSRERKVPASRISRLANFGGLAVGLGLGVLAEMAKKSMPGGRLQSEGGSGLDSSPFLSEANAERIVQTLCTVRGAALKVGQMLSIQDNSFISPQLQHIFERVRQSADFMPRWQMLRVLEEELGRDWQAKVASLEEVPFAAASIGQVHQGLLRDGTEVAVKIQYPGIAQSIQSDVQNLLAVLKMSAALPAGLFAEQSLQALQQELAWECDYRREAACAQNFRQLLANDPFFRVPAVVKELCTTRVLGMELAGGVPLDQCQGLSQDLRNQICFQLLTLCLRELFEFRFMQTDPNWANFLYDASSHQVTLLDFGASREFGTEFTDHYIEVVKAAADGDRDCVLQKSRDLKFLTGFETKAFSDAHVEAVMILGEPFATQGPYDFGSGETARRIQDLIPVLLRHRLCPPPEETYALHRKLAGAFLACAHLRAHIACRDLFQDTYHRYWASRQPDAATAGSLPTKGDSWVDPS

Set 1
Target: Calcium/calmodulin-dependent protein kinase type II subunit alpha (CAMK2A, Homo sapiens, UniProt Q9UQM7)
UniProt Q9UQM7, sequence (whole entry, looked up): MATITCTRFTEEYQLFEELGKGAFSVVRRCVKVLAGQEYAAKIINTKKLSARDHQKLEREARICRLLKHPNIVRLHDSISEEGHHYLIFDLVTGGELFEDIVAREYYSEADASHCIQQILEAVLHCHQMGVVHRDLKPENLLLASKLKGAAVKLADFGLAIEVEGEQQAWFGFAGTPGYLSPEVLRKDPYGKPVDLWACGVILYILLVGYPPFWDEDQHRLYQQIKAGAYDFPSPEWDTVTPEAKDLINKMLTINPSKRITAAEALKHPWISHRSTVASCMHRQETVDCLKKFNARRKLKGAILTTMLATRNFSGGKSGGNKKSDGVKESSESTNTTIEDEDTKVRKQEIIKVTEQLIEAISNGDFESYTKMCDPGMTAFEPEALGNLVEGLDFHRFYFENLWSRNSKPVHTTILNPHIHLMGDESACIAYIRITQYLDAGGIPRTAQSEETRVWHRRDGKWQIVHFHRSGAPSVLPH
Read-out: enzyme activity
Action: inhibitor
Tested at: 10 µM
SMILES	inhibition
COc1cc2c(cc1OC)[C@H]1C[C@@H](OC(=O)[C@@H](N)C(C)C)[C@H](CC(C)C)CN1CC2	-5%
Cc1cccc(C)c1NC(=O)C(C)N (centres unmarked)	-8%
COc1c(O)cc2oc(-c3ccccc3)cc(=O)c2c1O	-7%
Cc1onc(-c2c(F)cccc2Cl)c1C(=O)N[C@@H]1C(=O)N2[C@@H]1SC(C)(C)[C@@H]2C(=O)O	-8%
CCN(CC)CCOc1ccc(C(=C(Cl)c2ccccc2)c2ccccc2)cc1	7%
CC1=CC[C@@H](C(C)(C)O)CC1	0.43% and -0.17%

Set 2
SMILES: CN([C@@H]1CCc2c(CC(=O)O)c3ccccc3n2C1)S(=O)(=O)c1ccc(F)cc1
Read-out: cell-free assay
Method: competition with immobilised ligand
Tested at: 1 µM
target	remaining binding
BMP2K (Homo sapiens, UniProt Q9NSY1)	100%
Receptor-type tyrosine-protein kinase FLT3, autoinhibited (FLT3, Homo sapiens, UniProt P36888)	100%
MET (Homo sapiens, UniProt P08581, M1250T)	100%
EGFR (Homo sapiens, UniProt P00533, del746-750)	100%
Ribosomal protein S6 kinase alpha-4, N-terminal kinase domain (RPS6KA4, Homo sapiens, UniProt O75676)	100%
EPHA8 (Homo sapiens, UniProt P29322)	100%
SRPK1 (Homo sapiens, UniProt Q96SB4)	100%
MYLK4 (Homo sapiens, UniProt Q86YV6)	100%

Set 3
SMILES: CO[C@@H]1[C@H](N(C)C(=O)c2ccccc2)C[C@H]2O[C@]1(C)n1c3ccccc3c3c4c(c5c6ccccc6n2c5c31)C(=O)NC4
Read-out: enzyme activity
Action: inhibitor
Tested at: 1 µM
target	inhibition [%]
EPHA3 (Homo sapiens, UniProt P29320)	0
COQ8B (Homo sapiens, UniProt Q96D53)	0
SRPK1 (Homo sapiens, UniProt Q96SB4)	11
KIT (Homo sapiens, UniProt P10721, L576P)	100
KIT (Homo sapiens, UniProt P10721, T670I/V559D)	98
CDC42BPB (Homo sapiens, UniProt Q9Y5S2)	4
ROCK2 (Homo sapiens, UniProt O75116)	28

Set 4
Target: Dual specificity tyrosine-phosphorylation-regulated kinase 1A (DYRK1A, Homo sapiens, UniProt Q13627)
Read-out: enzyme activity
Action: inhibitor
Tested at: 0.5 µM
Relative to: control
SMILES	remaining activity [%]
Nc1ncnc2n[nH]c(Nc3ccc(F)cc3)c12	86.4
O=C1NC(=O)C(c2cn(CCCn3ccnc3)c3ccccc23)=C1Nc1ccccc1	30.8
CN(C)c1ccc(C=C2C(=O)Nc3ccccc32)cc1	103
O=C(Nc1cccc(Nc2cc(Nc3cccc(C(F)(F)F)c3)ncn2)c1)C1CC1	104
CCOC(=O)c1c(C)[nH]c(/C=C2\C(=O)Nc3ccccc32)c1C	95.7
COc1ccc(CNC(=O)Nc2ncc([N+](=O)[O-])s2)cc1	95.6
O=S(=O)(c1cccc2cnccc12)N1CCCNCC1	99.4
Cc1nc(-c2ccccc2)c(-c2ccncc2)o1	98.4
Cc1cccc(-c2[nH]c(C(C)(C)C)nc2-c2ccc3c(c2)OCO3)n1	98.4
Nc1[nH]nc2nc3ccccc3nc12	95.1
OCC(O)CCON=C1C(c2c(O)[nH]c3ccccc23)=Nc2ccccc21 (centres unmarked)	82.8
Oc1ccc(-c2nc(-c3ccncc3)c(-c3ccc(F)cc3)[nH]2)cc1	99.6
N#CC(C#N)=C(N)/C(C#N)=C/c1ccc(O)cc1	95.9
O=C(CCCc1ccc(-c2ccccc2F)cc1)Nc1ccc(O)cc1	106

Some of these lines once more (set 1):
SMILES	inhibition
Cc1cccc(C)c1NC(=O)C(C)N (centres unmarked)	-8%
COc1c(O)cc2oc(-c3ccccc3)cc(=O)c2c1O	-7%
Cc1onc(-c2c(F)cccc2Cl)c1C(=O)N[C@@H]1C(=O)N2[C@@H]1SC(C)(C)[C@@H]2C(=O)O	-8%
CCN(CC)CCOc1ccc(C(=C(Cl)c2ccccc2)c2ccccc2)cc1	7%
CC1=CC[C@@H](C(C)(C)O)CC1	0.43% and -0.17%
